Assay results of several laboratories.
Compare with care: the assays were run in different laboratories. Several values in a cell are separate wells, animals, samples, runs or records. Numbers after ± are the reported error.
B1: TNFSF4 51-183 (Homo sapiens, UniProt P23510); sequence looked up; chain QVSHRYPRIQSIKVQFTEYKKEKGFILTSQKEDEIMKVQNNSVIINCDGFYLISLKGYFSQEVNISLHYQKDEEPLFQLKKVRSVNSLMVASLTYKDKVYLNVTTDNTSLDDFHVNGGELILIHQNPGEFCVL
B2: CDC48A 1-190 (Arabidopsis thaliana, UniProt P54609); chain MSTPAESSDSKSKKDFSTAILERKKSPNRLVVDEAINDDNSVVSLHPATMEKLQLFRGDTILIKGKKRKDTVCIALADETCEEPKIRMNKVVRSNLRVRLGDVISVHQCPDVKYGKRVHILPVDDTVEGVTGNLFDAYLKPYFLEAYRPVRKGDLFLVRGGMRSVEFKVIETDPAEYCVVAPDTEIFCEG
B3: ATG9 864-997 (Saccharomyces cerevisiae, UniProt Q12142); sequence looked up; chain SFLNNKYSWRKQFQPGQKPELFRIGKHALGPGHNISPAIYSTRNPGKNWDNNNNGDDIKNGTNNATAKNDDNNGNNDHEYVLTESFLDSGAFPNHDVIDHNKMLNSNYNGNGILNKGGVLGLVKEYYKKSDVGR
B4: RSPO4/IgG1 Fc RSPO4 32-137 Q65R/N297Q; CPT2 conjugated via azide click; chain GGNCTGCIICSEENGCSTCQQRLFLFIRREGIRRYGKCLHDCPPGYFGIRGQEVNRCKKCGATCESCFSQDFCIRCKRQFYLYKGKCLPTCPPGTLAHQNTRECQGGGGGSGGGGSGGGGS
B5: ADRM1 265-388 (Homo sapiens, UniProt Q16186); chain SDLQSILATMNVPAGPAGGQQVDLASVLTPEIMAPILANADVQERLLPYLPSGESLPQTADEIQNTLTSPQFQQALGMFSAALASGQLGPLMCQFGLPAEAVEAANKGDVEAFAKAMQNNAKPE
B6: BAD (Homo sapiens, UniProt Q92934); chain MFQIPEFEPSEQEDSSSAERGLGPSPAGDGPSGSGKHHRQAPGLLWDASHQQEQPTSSSHHGGAGAVEIRSRHSSYPAGTEDDEGMGEEPSPFRGRSRSAPPNLWAAQRYGRELRRMSDEFVDSFKKGLPRPKSAGTATQMRQSSSWTRVFQSWWDRNLGRGSSAPSQ
B7: Pigr 19-135 (Mus musculus, UniProt O70570); chain KSPIFGPQEVSSIEGDSVSITCYYPDTSVNRHTRKYWCRQGASGMCTTLISSNGYLSKEYSGRANLINFPENNTFVINIEQLTQDDTGSYKCGLGTSNRGLSFDVSLEVSQVPELPS
B8: NOTCH4 276-511 (Homo sapiens, UniProt Q99466); sequence looked up; chain NPDNCVSHQCQNGGTCQDGLDTYTCLCPETWTGWDCSEDVDECETQGPPHCRNGGTCQNSAGSFHCVCVSGWGGTSCEENLDDCIAATCAPGSTCIDRVGSFSCLCPPGRTGLLCHLEDMCLSQPCHGDAQCSTNPLTGSTLCLCQPGYSGPTCHQDLDECLMAQQGPSPCEHGGSCLNTPGSFNCLCPPGYTGSRCEADHNECLSQPCHPGSTCLDLLATFHCLCPPGLEGQLCE
B9: SRS2 1107-1174 I1152A (Saccharomyces cerevisiae, UniProt P12954); N-terminal cysteine BODIPY-FL; chain CHNPDDTTVDNRPIISNAKFLADAAMKKTQKFSKKVKNEPASSQMDAFSQLSRAKKKSKLNNGEIIVID
B10: IL18 37-193 S43C/C74S/S86C/C104S/C112S/C163S (Homo sapiens, UniProt Q14116); chain YFGKLECKLSVIRNLNDQVLFIDQGNRPLFEDMTDSDSRDNAPRTIFIICMYKDSQPRGMAVTISVKSEKISTLSSENKIISFKEMNPPDNIKDTKSDIIFFQRSVPGHDNKMQFESSSYEGYFLASEKERDLFKLILKKEDELGDRSIMFTVQNED

Notch ankyrin domain R85A/R107A (Drosophila)
Kd (dx (Drosophila melanogaster, UniProt Q23985); AUC): 56700 nM

B1 (TNFSF4 51-183)
Kd (TNFRSF4 29-170 (Homo sapiens, UniProt P43489); SPR): 1000 nM

Homer EVH1 domain (Capsaspora owczarzaki)
Kd (RAX peptide (Homo sapiens); BLI): 35800 nM

TNF (Homo sapiens, UniProt P01375)
Kd (golimumab IgG, PBS-stressed 14 d, Asn deamidation/succinimide, HC Asn43, LC Asn93, Fc; SPR): 0.0073 nM

GHMMSKLFLDELPESLSRKIGTVVRVLPSSLEIFEELYKYALNEN (RTT106 residues 1-42 (Saccharomyces cerevisiae, UniProt P40161))
Kd (histone H3/H4 tetramer (Xenopus laevis); ITC): 600 nM

B2 (CDC48A 1-190)
Kd (PUX7 (Arabidopsis thaliana, UniProt Q94JZ8); BLI; 25 °C): 20.5 ± 0.2 nM

RSSVITSA (ZBTB16 residues 285-292 (Homo sapiens))
Kd (IRF2BP2 fragment (Homo sapiens); ITC; peptide): 11900 nM and 15100 nM

Cacna1c distal C-terminal regulatory (Rattus norvegicus)
Kd (CACNA1C IQ motif 1644-1668 F1658E, fluorescein label (UniProt P15381); fluorescence polarisation): 88000 ± 10000 nM

B3 (ATG9 864-997)
Kd (Atg23 full-length, dimer (yeast, UniProt Q06671); BLI): 460 nM

B4
Kd (LGR5 (Homo sapiens, UniProt O75473); whole-cell binding saturation; Fc fusion, HEK293T): 1.3 nM

TRTKIDWNKILS (CAPZA1 residues 265-276)
Kd (S100B (Bos taurus, UniProt P02638); fluorescence titration; peptide): 210 ± 30 nM

human TUBB4B
log2 fold change (PP6C (human); co-immunoprecipitation, IP-MS; CYB5R4 knockout cells; concentration not given; reference: CYB5R4 knockout over parental): -0.59

AGRRSSYLLAIT (ARHGAP23 GBR (Homo sapiens); phosphoserine)
Kd (DLG4 GK domain (Rattus norvegicus); ITC; peptide): 650 nM

B5 (ADRM1 265-388)
Kd (UCHL5 (Homo sapiens); ITC): 6.4 nM

B6 (BAD)
Kd (Bcl2l2 (Mus musculus, UniProt P70345); FRET or BRET; not purified): 9000 nM

B7 (Pigr 19-135)
Kd (Igha/Jchain CH2-CH3 with J chain D137A/P136A (Mus musculus); SPR): 1190 nM

VGSPKNAVPP (IL1RAP 234-243 (Homo sapiens); acetylated N-terminus/C-terminal amide)
Kd (IL1RL1/IL33 ST2 , IL-33 19-328; SPR; peptide): 105000 nM

B8 (NOTCH4 276-511)
Kd (DLL4 27-400 G28S/F107L/I143F/H194Y/L206P/N257P/T271L/F280Y/S301R/Q305P (Homo sapiens, UniProt Q9NR61); SPR): 24 nM

B9 (SRS2 1107-1174 I1152A)
Kd (POL30 1-258 K127G (Saccharomyces cerevisiae, UniProt P15873); fluorescence polarisation; apparent): 10200 nM

B10
Kd (IL18BP (Homo sapiens, UniProt O95998); SPR): 0.009 nM

YLEFDPLYVRLFYVNC (engineered peptide)
Kd (VPS35/VPS26A/VPS29 retromer complex (Homo sapiens); SPR; peptide): 1.1 nM

KLLMIIHDRREFAKFEKEKMNAKWDTQENPIYKSPINNFKNPNYGRKAGL (ITGB1 752-801 (Homo sapiens, UniProt P05556-5); sequence looked up)
Kd (Tln2 312-408 P355S (Mus musculus, UniProt Q71LX4); NMR titration): 51000 nM

PARRSEELVAEAHNLCTLLENAIQDTVREQDQSFTALDWSWLQTE (IKBKB 701-745 K703R/K704R (UniProt O14920); N-terminal FITC; sequence looked up)
Kd (IKBKG 1-196 (Homo sapiens, UniProt Q9Y6K9-1); fluorescence polarisation; peptide): 18 nM

SRSF1 (human)
log2 fold change (PP6C (human); co-immunoprecipitation, IP-MS; CYB5R4 knockout cells; concentration not given; reference: CYB5R4 knockout over parental): -0.26

GRIN2A fragment S1459A (sequence not shown)
Kd (SNX27 fragment (Rattus norvegicus); ITC): 49900 nM

Some of these lines once more:
VGSPKNAVPP (IL1RAP 234-243 (Homo sapiens); acetylated N-terminus/C-terminal amide)
Kd (IL1RL1/IL33 ST2 , IL-33 19-328; SPR; peptide): 105000 nM
